Measurements of several laboratories.
Protocols differ between the studies behind these lines. Values joined by “and” are separate records of one study, mostly repeats; a detail may differ. ± marks the error that the study gave. Converted amounts (≈) assume the structure as drawn.
KCNH2: Voltage-gated inwardly rectifying potassium channel KCNH2 (KCNH2, Homo sapiens, UniProt Q12809)
UniProt Q12809, sequence (whole entry, looked up): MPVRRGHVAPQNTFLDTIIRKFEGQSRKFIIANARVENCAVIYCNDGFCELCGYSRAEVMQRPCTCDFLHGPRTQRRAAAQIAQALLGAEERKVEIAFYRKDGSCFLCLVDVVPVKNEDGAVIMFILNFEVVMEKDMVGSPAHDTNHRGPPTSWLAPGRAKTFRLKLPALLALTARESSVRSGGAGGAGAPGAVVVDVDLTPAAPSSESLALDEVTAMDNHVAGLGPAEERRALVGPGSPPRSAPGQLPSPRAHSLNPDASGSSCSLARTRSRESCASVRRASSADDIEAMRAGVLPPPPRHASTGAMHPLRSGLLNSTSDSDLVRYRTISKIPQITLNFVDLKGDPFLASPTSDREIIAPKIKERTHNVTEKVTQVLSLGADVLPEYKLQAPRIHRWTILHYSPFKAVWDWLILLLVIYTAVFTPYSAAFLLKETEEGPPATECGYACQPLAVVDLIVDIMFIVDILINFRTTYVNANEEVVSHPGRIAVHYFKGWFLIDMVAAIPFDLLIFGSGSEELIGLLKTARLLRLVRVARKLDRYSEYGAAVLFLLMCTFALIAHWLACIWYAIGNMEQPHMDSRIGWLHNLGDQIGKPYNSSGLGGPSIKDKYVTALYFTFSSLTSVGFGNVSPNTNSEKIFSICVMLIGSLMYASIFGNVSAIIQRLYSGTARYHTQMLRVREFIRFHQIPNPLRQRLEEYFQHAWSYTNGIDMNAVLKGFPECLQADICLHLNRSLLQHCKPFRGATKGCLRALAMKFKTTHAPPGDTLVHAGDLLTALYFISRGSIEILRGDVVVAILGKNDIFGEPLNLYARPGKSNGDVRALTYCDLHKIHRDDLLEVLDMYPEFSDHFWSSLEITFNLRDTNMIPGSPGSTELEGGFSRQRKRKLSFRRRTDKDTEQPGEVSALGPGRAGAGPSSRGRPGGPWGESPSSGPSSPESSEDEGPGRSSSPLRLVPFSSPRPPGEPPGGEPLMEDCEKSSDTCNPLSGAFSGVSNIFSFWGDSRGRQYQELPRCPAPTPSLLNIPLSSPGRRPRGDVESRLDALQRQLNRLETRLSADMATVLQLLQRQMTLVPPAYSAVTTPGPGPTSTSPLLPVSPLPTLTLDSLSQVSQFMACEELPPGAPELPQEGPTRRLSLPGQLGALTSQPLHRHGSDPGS
UniProt P00760, sequence (whole entry, looked up): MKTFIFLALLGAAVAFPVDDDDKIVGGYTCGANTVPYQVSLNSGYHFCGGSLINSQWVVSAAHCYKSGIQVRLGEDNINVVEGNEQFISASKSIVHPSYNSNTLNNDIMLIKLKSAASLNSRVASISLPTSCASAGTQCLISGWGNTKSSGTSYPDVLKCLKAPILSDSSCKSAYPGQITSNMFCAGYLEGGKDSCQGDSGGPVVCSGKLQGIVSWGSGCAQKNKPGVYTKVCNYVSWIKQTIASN
UniProt P78329, sequence (whole entry, looked up): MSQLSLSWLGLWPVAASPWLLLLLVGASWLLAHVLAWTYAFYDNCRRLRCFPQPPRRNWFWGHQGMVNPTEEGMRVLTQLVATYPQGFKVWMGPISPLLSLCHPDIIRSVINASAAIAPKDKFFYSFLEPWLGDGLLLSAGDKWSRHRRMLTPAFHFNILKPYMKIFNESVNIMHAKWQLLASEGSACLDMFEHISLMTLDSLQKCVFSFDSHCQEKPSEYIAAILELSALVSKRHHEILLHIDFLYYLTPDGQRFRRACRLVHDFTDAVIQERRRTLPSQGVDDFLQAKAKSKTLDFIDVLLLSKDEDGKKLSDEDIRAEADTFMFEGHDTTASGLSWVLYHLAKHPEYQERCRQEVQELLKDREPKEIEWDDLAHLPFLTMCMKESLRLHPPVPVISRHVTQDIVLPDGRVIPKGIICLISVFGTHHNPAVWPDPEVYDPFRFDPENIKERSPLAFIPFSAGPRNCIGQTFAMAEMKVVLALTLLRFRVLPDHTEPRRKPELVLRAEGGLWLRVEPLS

COc1ccc2c3c1O[C@H]1[C@H](O)C=C[C@H]4[C@@H](C2)N(C)CC[C@@]341  logP (1 h): 1.38
CC[C@H](C)[C@H](NC(=O)[C@H](CC(=O)O)NC(=O)[C@@H](NC(=O)[C@@H]1CCCN1C(=O)[C@@H](N)CCCNC(=N)N)[C@@H](C)O)C(=O)N[C@@H](CCCCN)C(=O)N[C@H]1CSSC[C@@H]2NC(=O)[C@H](CCCNC(=N)N)NC(=O)CNC(=O)[C@H](CC(N)=O)NC(=O)[C@H]([C@@H](C)O)NC(=O)[C@H](CCCCN)NC(=O)CNC(=O)[C@H](Cc3ccccc3)NC(=O)[C@H](CCCNC(=N)N)NC(=O)[C@H](CO)NC(=O)[C@H](CCCCNC(=O)OCc3cc(OC)c(OC)cc3[N+](=O)[O-])NC(=O)[C@@H]3CSSC[C@@H](C(=O)N[C@@H](Cc4ccccc4)C(=O)O)NC(=O)[C@H](CC(=O)O)NC(=O)[C@H](CSSC[C@H](NC(=O)[C@H](CCC(N)=O)NC(=O)[C@H](Cc4ccc(O)cc4)NC(=O)[C@H](CO)NC(=O)[C@H](CCC(=O)O)NC(=O)[C@H](CO)NC1=O)C(=O)N[C@@H](Cc1ccccc1)C(=O)N1CCC[C@H]1C(=O)N[C@@H](C(C)C)C(=O)N3)NC(=O)[C@H](Cc1ccccc1)NC(=O)CNC(=O)[C@H](CC(N)=O)NC(=O)[C@H](C(C)C)NC2=O  RR interval change (rat, anaesthetised; intravenous, 350 µg/kg, illumination 365 nm 75 mW/cm2, 10 min, right atrium; relative to: control): 15.9 ± 2.9 ms
Cc1nc(=O)c2cc(CN(C)c3ccc(C(=O)Nc4n[nH]c5ccccc45)s3)ccc2[nH]1  uptake from medium (Mycobacterium tuberculosis; H37Rv; 10 µM, 24 h): 49.6 ± 4%
CNC(=O)C[C@H](Cc1ccncc1)NC(=O)[C@@H](Cc1cccc(Br)c1)NC(=O)[C@@H](N)Cc1cccc(F)c1  viability (Huh-7-ACE2; CellTiter-Glo; 0.0488 µM, 48 h, unit not given; relative to: DMSO): 1 and 0.985 and 0.971
CCc1nnc(NS(=O)(=O)c2ccc(NC(=O)c3cccc4ccccc34)cc2)s1  inhibition (Cytochrome P450 2D6 (CYP2D6, Homo sapiens, UniProt P10635); 10 µM): < 10%
CC(C)C[C@H](NC(=O)[C@H](CC(C)C)NC(=O)[C@H](CCCCN)NC(=O)[C@H](Cc1ccccc1)NC(=O)[C@@H](NC(=O)[C@H](CCCNC(=N)N)NC(=O)[C@@H](N)CCCCN)C(C)C)C(=O)N[C@@H](CCCCN)C(=O)N[C@@H](CCCNC(=N)N)C(=O)N[C@@H](Cc1ccc(O)cc1)C(=O)N[C@@H](Cc1c[nH]c2ccccc12)C(=O)N[C@@H](CCCNC(=N)N)C(=O)N[C@@H](CCC(N)=O)C(=O)N[C@@H](CC(C)C)C(=O)N[C@@H](CCCCN)C(=O)N[C@@H](CCCCN)C(=O)N1CCC[C@H]1C(=O)N[C@H](C(=O)N[C@@H](CCCNC(=N)N)C(=O)NCCOCCOCC(=O)O)C(C)C  intact peptide remaining (Serine protease 1 (PRSS1, Bos taurus, UniProt P00760); HPLC; 1 mg/mL, 6 h, 37 °C, together with: enzyme to peptide 50:1): 20 to 24%
Cc1nc2cccc(OCC(C)(C)C(=O)NC(C)C)c2c(N)c1C(=O)[O-].[Na+]  revertant colonies (Salmonella typhimurium; Ames preincubation; TA1535; 0.32 mg/plate, together with: without rat liver S9): 15 ± 5 colonies/plate
O=C1NC2(CC2)COc2ncc(F)cc2[C@H]2COCCN2c2ccn3ncc1c3n2  organ-to-body weight ratio (Sprague-Dawley rat, female, ovaries; oral, 2.5 mg/kg/day, 4 weeks dosing, end of recovery): 0.037 ± 0.004%
COc1cc2c(cc1-n1ccnc1)C[C@H]1[C@H]3CCCC[C@@]23CCN1C  inhibition (KCNH2; ligand displacement, radioligand; 10 µM): 39.5%
Cc1ccccc1S(=O)(=O)N1CCCC2(C1)Nc1cccnc1N=C2NC1CCCC1 (centres unmarked)  CC50 (HEK293; 72 (unit not given)): 38.6 µM
CC1(F)CN(C(=O)Cn2c(=O)c(C(=O)NCc3ccc(Cl)cc3)cc3nc(N4CCN(CCN)C4=O)cnc32)C1  selectivity index (herpes simplex virus 1; cytopathic effect; relative to: CC50 over EC50): > 21.4
Cc1cc(-c2ccc3ccccc3c2)nnc1NCCN1CCN(C)CC1  t1/2 (Cytochrome P450 4F2 (Homo sapiens, UniProt P78329); substrate; recombinant enzyme; 1000 nM): > 30 min
CC[C@H](C)[C@H](NC(=O)[C@H](CCCCN)NC(=O)CNC(=O)[C@H](CC(C)C)NC(=O)[C@H](Cc1ccccc1)NC(=O)[C@H](CCCCN)NC(=O)[C@H](CO)NC(=O)[C@H](Cc1ccccc1)NC(=O)[C@H](Cc1c[nH]c2ccccc12)NC(=O)[C@H](CCC(N)=O)NC(=O)[C@@H](NC(=O)[C@H](Cc1ccccc1)NC(=O)CCCCCNC(=O)CN1CCN(CC(=O)O)CCN(CC(=O)O)CCN(CC(=O)O)CC1)C(C)C)C(=O)N[C@@H](CCC(=O)O)C(=O)N1CCC[C@H]1C(=O)N[C@@H](CC(=O)O)C(=O)N[C@H](C(=O)N[C@@H](CO)C(=O)N[C@@H](CCC(N)=O)C(=O)N[C@H](C(=O)N[C@@H](CCC(N)=O)C(=O)N[C@@H](CC(=O)O)C(=O)N1CCC[C@H]1C(=O)N[C@@H](CC(N)=O)C(=O)N[C@@H](CC(=O)O)C(=O)N[C@@H](CCC(N)=O)C(=O)N[C@@H](Cc1ccc(O)cc1)C(=O)N[C@@H](CCC(=O)O)C(=O)N1CCC[C@H]1C(=O)N[C@@H](Cc1ccccc1)C(=O)O)C(C)C)C(C)C [copper-64 labelled]  tissue uptake (C57BL/6 mice, male, tumour-free, small intestine; 2 h): 8.14 ± 0.8 %ID/g
O=C(O)CCCOc1ccc(O)cc1-c1cc(-c2ccccc2C(F)(F)F)n(-c2ccccc2)n1  mutagenicity (Salmonella typhimurium; Ames test; TA98, TA100, TA1535, TA1537; 78.1 to 5000 µg/plate, without S9): negative
COc1cc2c(cc1NC(=O)c1cncn1C)C[C@H]1[C@H]3CCCC[C@@]23CCN1C  inhibition (KCNH2; ligand displacement, radioligand; 1 µM): 3.4%
CC[C@H](C)[C@H](NC(=O)[C@H](CCCCN)NC(=O)[C@H](CCCCN)NC(=O)[C@H](Cc1ccccc1)NC(=O)[C@H](Cc1ccccc1)NC(=O)[C@H](CCCCN)NC(=O)[C@H](CCCCN)NC(=O)[C@H](Cc1ccccc1)NC(=O)[C@H](CCCNC(=N)N)NC(=O)[C@@H](N)CCCCN)C(=O)N[C@@H](CCCCN)C(=O)N[C@@H](CCCCN)C(=O)N[C@@H](CO)C(=O)N[C@H](C(=O)N[C@@H](CCCCN)C(=O)N[C@@H](CCCCN)C(=O)N[C@@H](CCCNC(=N)N)C(=O)N[C@H](C(=O)N[C@@H](CCCCN)C(=O)N[C@@H](CCCCN)C(=O)N[C@@H](CC(C)C)C(=O)N[C@@H](Cc1ccccc1)C(=O)N[C@@H](CCCCN)C(=O)N[C@@H](CCCCN)C(=O)N1CCC[C@H]1C(=O)N[C@@H](CCCNC(=N)N)C(=O)N[C@H](C(=O)N[C@H](C(=O)N1CCC[C@H]1C(=O)N[C@H](C(=O)N[C@@H](CO)C(=O)N[C@H](C(=O)N1CCC[C@H]1C(=O)N[C@@H](Cc1ccccc1)C(=O)O)[C@@H](C)CC)[C@@H](C)CC)[C@@H](C)CC)C(C)C)C(C)C)C(C)C  MIC (Pseudomonas aeruginosa; P1; after heating at 60 °C): 4 µg/mL (≈ 0.948 µM)
c1ccc(Nc2ncnc3ccc(-c4cccc(N5CCOCC5)c4)cc23)cc1  selectivity ratio (Trypanosoma cruzi; NIH 3T3; relative to: NIH 3T3 TC50 over T. cruzi EC50): 1.3
CC(=O)NCCCC[C@@H]1NC(=O)[C@H](Cc2c[nH]c3c(C)cccc23)NC(=O)[C@H]([C@@H](C)O)NC(=O)[C@H](CC(N)=O)NC(=O)[C@@H](NC(C)=O)C(C)(C)SSC(C)(C)[C@@H](C(=O)N[C@@H](Cc2ccc(OCCN)cc2)C(=O)N[C@@H](Cc2ccc3ccccc3c2)C(=O)NC2(C(=O)N[C@@H](CCC(=O)O)C(=O)N[C@@H](CC(N)=O)C(=O)N[C@@H](Cc3cccnc3)C(=O)N(C)CC(N)=O)CCOCC2)NC1=O  fraction unbound (human alpha-1-acid glycoprotein 0.14%; equilibrium dialysis; 1 µM): 91.5 ± 1.7%
CNC(=O)CC1CN(C(=O)c2ccc(C(F)(F)F)cn2)CCN1C(=O)c1cccnn1 (centres unmarked)  viability (Huh-7-ACE2; CellTiter-Glo; 0.0488 µM, 48 h, unit not given; relative to: DMSO): 0.944 and 0.898 and 0.786
CCN(CC)CCOc1ccc(-c2nnn(Cc3ccc(OC)cc3)c2N)cc1  IC50 (SLCO1B1 (Homo sapiens, UniProt Q9Y6L6); transporter uptake, inhibitor): > 100 µM

Repeated from above:
O=C(O)CCCOc1ccc(O)cc1-c1cc(-c2ccccc2C(F)(F)F)n(-c2ccccc2)n1  mutagenicity (Salmonella typhimurium; Ames test; TA98, TA100, TA1535, TA1537; 78.1 to 5000 µg/plate, without S9): negative
COc1cc2c(cc1NC(=O)c1cncn1C)C[C@H]1[C@H]3CCCC[C@@]23CCN1C  inhibition (KCNH2; ligand displacement, radioligand; 1 µM): 3.4%
CC[C@H](C)[C@H](NC(=O)[C@H](CCCCN)NC(=O)[C@H](CCCCN)NC(=O)[C@H](Cc1ccccc1)NC(=O)[C@H](Cc1ccccc1)NC(=O)[C@H](CCCCN)NC(=O)[C@H](CCCCN)NC(=O)[C@H](Cc1ccccc1)NC(=O)[C@H](CCCNC(=N)N)NC(=O)[C@@H](N)CCCCN)C(=O)N[C@@H](CCCCN)C(=O)N[C@@H](CCCCN)C(=O)N[C@@H](CO)C(=O)N[C@H](C(=O)N[C@@H](CCCCN)C(=O)N[C@@H](CCCCN)C(=O)N[C@@H](CCCNC(=N)N)C(=O)N[C@H](C(=O)N[C@@H](CCCCN)C(=O)N[C@@H](CCCCN)C(=O)N[C@@H](CC(C)C)C(=O)N[C@@H](Cc1ccccc1)C(=O)N[C@@H](CCCCN)C(=O)N[C@@H](CCCCN)C(=O)N1CCC[C@H]1C(=O)N[C@@H](CCCNC(=N)N)C(=O)N[C@H](C(=O)N[C@H](C(=O)N1CCC[C@H]1C(=O)N[C@H](C(=O)N[C@@H](CO)C(=O)N[C@H](C(=O)N1CCC[C@H]1C(=O)N[C@@H](Cc1ccccc1)C(=O)O)[C@@H](C)CC)[C@@H](C)CC)[C@@H](C)CC)C(C)C)C(C)C)C(C)C  MIC (Pseudomonas aeruginosa; P1; after heating at 60 °C): 4 µg/mL (≈ 0.948 µM)
